Measurements collected from several papers.
± gives the spread as reported.
Cell line: SH-SY5Y

Cc1c(C)c(C)[c-](C)c1C.O=C([N-]c1ccccc1)c1ccccn1.[Cl-].[Ir+3] gave an IC50 of 35 µM (cell growth or viability, SRB; 24 h).
The IC50 of COc1c(C)c(OS(=O)(=O)c2ccccc2)c(C)c(O)c1C(=O)/C=C/c1ccccc1 is reported as 20.4 µM (cell growth or viability, SRB; 72 h).
With Cc1cc(NC(=O)c2cccc(-n3cc(NC(=O)Nc4ccccc4)cn3)c2)ccn1 the IC50 was 0.025 ± 0.01 µM (mitochondrial depolarization; pretreatment 1 h, with: 35 µM 6-OHDA, 4 h).
CN(C)C(CNC(=O)Nc1cc(C(F)(F)F)ccc1N1CCOCC1)c1ccncc1 (centres unmarked) gave an IC50 of 200 µM (cell growth or viability, LDH).
Cc1cc(NC(=O)c2cccc(-n3cc(NC(=O)Nc4ccc(Cl)cc4)cn3)c2)ccn1 gave an IC50 of 3.44 ± 2.22 µM (in-cell Western, item: phospho-c-Jun; pretreatment 1 h, with: 35 µM 6-OHDA).
CCn1cc(/C=C/c2ccc3ccccc3[n+]2CC)c2ccccc21 gave an IC50 of 0.87 µM (cell growth or viability, MTT; 24 h).
COc1c(C)c(O)c(C(=O)C=Cc2ccccc2)c(OC)c1C has an IC50 of 7.52 µM (cell growth or viability, SRB; 72 h).
Cc1cc(NC(=O)c2cccc(-n3cc(NC(=O)Nc4ccccc4Cl)cn3)c2)ccn1 gave an IC50 of 0.026 ± 0.019 µM (mitochondrial depolarization; pretreatment 1 h, with: 35 µM 6-OHDA, 4 h).
The IC50 of Cc1c(C)c(C)[c-](C)c1C.O=C1c2cccc[n+]2[Ir]([Cl])[N]1CCCCCCCCCC[P+](c1ccccc1)(c1ccccc1)c1ccccc1.[Br-] is reported as 17 µM (cell growth or viability, SRB; 24 h).
For CCCCCCCC(=O)Oc1c(C)c(OC)c2c(c1C)OC(=O)[C@@H](CCCCCC)[C@]2(O)/C=C/c1ccccc1 (racemic), the IC50 was 20.9 µM (cell growth or viability, SRB; 72 h).
With CC(/C=C/c1ccc(OCC(=O)Nc2ccc(F)cc2)cc1)=N/O the IC50 was 122 µM (cell growth or viability, MTT).
Cc1c(C)c(C)[c-](C)c1C.O=C1c2cccc[n+]2[Ir]([Cl])[N]1CCCCCCCCCC[P+](c1ccccc1)(c1ccccc1)c1ccc2ccc3cccc4ccc1c2c34.[Br-] has an IC50 of 27 µM (cell growth or viability, SRB; 24 h).
COc1cc(/C=C/C(C)=NO)ccc1OCC(=O)Nc1ccccc1Cl (stereo in doubt) gave an IC50 of 49.7 µM (cell growth or viability, MTT).
For Cc1ccc(NC(=O)Nc2cnn(-c3cccc(C(=O)Nc4ccnc(C)c4)c3)c2)cc1, the IC50 was 0.042 ± 0.031 µM (mitochondrial depolarization; pretreatment 1 h, with: 35 µM 6-OHDA, 4 h).

For quick reference, copied from above:
For CCCCCCCC(=O)Oc1c(C)c(OC)c2c(c1C)OC(=O)[C@@H](CCCCCC)[C@]2(O)/C=C/c1ccccc1 (racemic), the IC50 was 20.9 µM (cell growth or viability, SRB; 72 h).
